Published values from different studies.
Each numbered part is a random draw from the data of one study; scales do not carry over between parts. Changes are numbered by the printed parent chain.

Series 1 — technique: RNA Bind-n-Seq; form: RNA; medium: in vitro; concentration: not given; reference: input RNA pool; reading: higher = stronger binding
Target: RING finger protein unkempt homolog, zinc fingers 1-6, GST-SBP tag (UNK, Homo sapiens, UniProt Q9C0B0, residues 30-357)
Sequence of UniProt Q9C0B0 (30-357, looked up): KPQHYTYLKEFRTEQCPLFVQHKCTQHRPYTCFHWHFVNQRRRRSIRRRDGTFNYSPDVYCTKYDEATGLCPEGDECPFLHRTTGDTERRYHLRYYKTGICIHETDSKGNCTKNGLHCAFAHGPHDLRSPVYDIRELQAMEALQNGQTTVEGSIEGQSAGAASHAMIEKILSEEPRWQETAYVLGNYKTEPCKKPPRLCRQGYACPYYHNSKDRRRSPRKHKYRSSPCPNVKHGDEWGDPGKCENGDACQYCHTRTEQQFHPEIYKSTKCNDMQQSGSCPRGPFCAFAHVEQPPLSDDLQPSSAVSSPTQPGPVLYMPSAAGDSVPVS
Setting: RNA with constant flanks, human and mouse sites, ends assumed
Shared flanks, not repeated: GGGAGUUCUACAGUCCGACGAUC … CAACAGAGGAUUGAGCAUCA
| Strand | bound/input enrichment [ratio] |
| --- | --- |
| GGCUUCUCCAACUGUAGAGGUACAGAUUGUCUUAACCUGUUCUUUUCUGUACAGACUUAAAAUUUCUAGUGGCUUUUAUUUUUCUUUGUAUUUUAAUUUUCCUACAAAGUCCUUUUUGGA | 11 |
| GCCACAUCCGGUGAUAUUUGGCCUGGCCUUUCAGCUUAUGAUAAUAGUCCUAGAUCACCCCAUAGUCCUUCACCUAUUGCUACACCACCUAGUCAGAGUUCAUCUUGCUCUGAUGCUCCC | 5.98 |
| GAAACAGAAUUAAAACAUUUCCACUGGGUUUCGCCUGUAAGAAAAAGUGUACCUGAGCACAUAGCUUUUUAAUAGCACUAACCAAUGCCUUUUUAGAUGUAUUUUUGAUGUAUAUAUCUA | 12.4 |
| UCAGGUGUUUGUAGUUAUUCAUACUGUAAAAAGAGGUAGCAUGAUAUGCUGGGACGCAUAUUUAGACCAGGAGCCCAAGGUGGACUCCUCGUCUUGAAUUUGCCAUUAACGUGCUGCAUG | 0.174 |
| AUUAGAAAUGGUUUGUGCUGCCUUGGUAGGGCUUUAAAGCACAGUAUUUCUCACUGACACAUUGGGCUUUCUGCUGGAAAGGAGCGGUGGGUAAGGCUCCCCUGGGUAUCACAUUGUGUA | 0.231 |
| UCCUUGCCUUCUGCUCUUUCAUUAGCUCUAGGAUUCUGAGUGAAUUCUAGAAAUAAUGAAGGGAAAACUGAUAAGAUAGCUCUCAUGCAAAUGUCAUUAGUUAAGUAAUUGUUCUAGUGU | 1.01 |
| UGGGUUCAGGAUGUGGAUGCAUUGCAGGCAGGAGGACGUGUGCCAGUGUUAGAGACACUCAUUGAACUUGUUGCAAGAGGCCGAUCUAUCCCAGUACAUCUCAAUUCUUUACCAAGAUUG | 0.143 |
| UCUGGGACGCACAGAGACCGUGAAGAUUCCAAGUUCAGGAGAACUCGACCGUUGGAAUGCCAAGAUGCCUUGGAAACAGCAGCCCGAGCCGAGGGCCUCUCUCUUGAUGCCUCCAUGCAU | 0.103 |

Series 2 — target: CCND3, cyclin fold, Cln2 fusion (human); technique: yeast growth competition, sequencing; medium: yeast; setting: weak parent motif; reference: not given; reading: higher = stronger binding
Parent: CABLES2 docking peptide (human); ICAKRSLCAAFSV; partner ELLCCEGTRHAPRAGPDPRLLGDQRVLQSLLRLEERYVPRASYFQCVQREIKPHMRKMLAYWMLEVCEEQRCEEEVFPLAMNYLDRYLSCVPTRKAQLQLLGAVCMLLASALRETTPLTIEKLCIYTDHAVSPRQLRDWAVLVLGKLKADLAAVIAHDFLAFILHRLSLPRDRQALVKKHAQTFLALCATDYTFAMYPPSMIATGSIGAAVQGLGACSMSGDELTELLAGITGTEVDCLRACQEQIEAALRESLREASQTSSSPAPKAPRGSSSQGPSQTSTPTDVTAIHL
| Substitution | normalised enrichment score |
| --- | --- |
| C8A | -0.0337 |
| S12A | 0.0526 |
| I1A | -0.135 |
| R5A | -0.0447 |
| V13A | 0.283 |

Series 3 — technique: DHFR PCA, deep sequencing; medium: yeast; together with: (+)-ABA 200 µM; reference: wild-type fitted maximum; reading: higher = stronger binding
Target: ABI1, truncated, D143A, DHFR fusion (Arabidopsis thaliana)
Setting: methotrexate growth selection, single substitutions
Parent: PYL1, truncated, DHFR fusion (Arabidopsis thaliana); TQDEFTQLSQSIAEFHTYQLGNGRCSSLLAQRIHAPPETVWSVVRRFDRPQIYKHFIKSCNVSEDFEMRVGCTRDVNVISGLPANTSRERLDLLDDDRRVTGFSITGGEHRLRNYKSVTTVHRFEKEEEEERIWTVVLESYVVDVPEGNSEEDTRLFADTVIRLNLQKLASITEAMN
| Substitution | relative binding score |
| --- | --- |
| T154D | -15.8% |
| D144S | 77% |
| R155S | 71.8% |
| T106P | 15.9% |
| R45D | -17.1% |
| S26N | 91.2% |
| N77V | 106% |
| S87K | 20% |
| G81F | 21.9% |
| Q51N | 94.7% |
| L29I | 97.3% |
| R74I | 7.1% |
| R113L | 97.9% |
| E131Y | 101% |
| D144K | 64.1% |
| R90Q | 96.1% |
| V40W | -16.1% |
| D3N | 93% |
| R155G | 49.4% |
| T119V | 83.1% |
| P146C | 66.8% |

Series 4 — target: UBE2O UBC core domain (UniProt Q9C0C9); technique: yeast two-hybrid; medium: yeast; setting: mostly zero background; reference: not given; reading: higher = stronger interaction
B1: RNF170 RING domain (UniProt Q96K19); chain TRQQFYTDMYCPICLHQASFPVETNCGHLFCGACIIAYWRYGSWLGAISCPICRQTVTLLLTVF
B2: TRIM69 RING domain (UniProt Q86WT6); chain VIQDITMELHCPLCNDWFRDPLMLSCGHNFCEACIQDFWRLQAKETFCPECKMLCQYNNCTF
B3: IRF2BPL RING domain (UniProt Q9H1B7); chain SPMANSGPLCCTICHERLEDTHFVQCPSVPSHKFCFPCSRESIKAQGATGEVYCPSGEKCPLVGSNVP
B4: ARK2C RING domain (UniProt Q6ZSG1); chain EGEESDTDEKCTICLSMLEDGEDVRRLPCMHLFHQLCVDQWLAMSKKCPICRVDIETQLGAD
B5: RC3H2 RING domain (UniProt Q9HBD1); chain QAAQWTEFLSCPICYNEFDENVHKPISLGCSHTVCKTCLNKLHRKACPFDQTAINTDIDVL
B6: TRIM8 RING domain (UniProt Q9BZR9); chain WKNCFEEELICPICLHVFVEPVQLPCKHNFCRGCIGEAWAKDSGLVRCPECNQAYNQKPGLE
B7: TRIM63 RING domain (UniProt Q969Q1); chain PMENLEKQLICPICLEMFTKPVVILPCQHNLCRKCANDIFQAANPYWTSRGSSVSMSGGRFRCPTCRHEVIMDRHGV
B8: ZNF598 RING domain (UniProt Q86UK7); chain AAAPERGGGSCVLCCGDLEATALGRCDHPVCYRCSTKMRVLCEQRYCAVCREELRQVVFGK
Construct (chain): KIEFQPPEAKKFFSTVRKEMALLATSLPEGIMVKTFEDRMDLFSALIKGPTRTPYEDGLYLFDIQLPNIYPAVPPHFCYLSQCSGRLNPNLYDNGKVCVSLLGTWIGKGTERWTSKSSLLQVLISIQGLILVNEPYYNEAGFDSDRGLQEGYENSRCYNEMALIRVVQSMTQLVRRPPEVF
| Sequence | lacZ reporter activity |
| --- | --- |
| B1 (RNF170 RING domain) | 0 |
| PEELQAMDNVCIICREEMVTGAKRLPCNHIFHTSCLRSWFQRQQTCPTCRMDVLRASLPA (SYVN1 RING domain (UniProt Q86TM6)) | 0 |
| B2 (TRIM69 RING domain) | 0 |
| QLRRLQEERTCKVCMDKEVSVVFIPCGHLVVCQECAPSLRKCPICRGIIKGTVRTF (BIRC2 RING domain (UniProt Q13490)) | 0 |
| B3 (IRF2BPL RING domain) | 0 |
| B4 (ARK2C RING domain) | 0 |
| QLRRLQEERTCKVCMDKEVSIVFIPCGHLVVCKDCAPSLRKCPICRSTIKGTVRTF (BIRC3 RING domain (UniProt Q13489)) | 0 |
| B5 (RC3H2 RING domain) | 0 |
| B6 (TRIM8 RING domain) | 0 |
| B7 (TRIM63 RING domain) | 0 |
| B8 (ZNF598 RING domain) | 0 |

Some of these lines once more (series 2):
| Substitution | normalised enrichment score |
| --- | --- |
| C8A | -0.0337 |
| I1A | -0.135 |
| V13A | 0.283 |
